# Experimental data gathered from unrelated publications.
# Numbered parts are unrelated; each lists some results of a single study. Changes are numbered by the printed parent chain.

# Series 1 — target: UBE2D3 UBC core domain (UniProt P61077); method: yeast two-hybrid; matrix: yeast; setting: mostly zero background; baseline: not given; direction: higher = stronger interaction
# B1: UBE4A RING domain (UniProt Q14139); chain LQQQEEETYADACDEFLDPIMSTLMCDPVVLPSSRVTVDRSTIARHLLSDQTDPFNRSPLTMDQIRPNTELKEKIQRWLAERKQQKEQLE
# B2: MSL2 RING domain (UniProt Q9HCI7); chain LLPYFRQSLSCCVCGHLLQDPIAPTNSTCQHYVCKTCKGKKMMMKPSCSWCKDYEQFEENKQ
# B3: RNF112 RING domain (UniProt Q9ULX5); chain QPMAPRELPTCSICLERLRDPISLDCGHDFCIRCFSTHRLPGCEPPCCPECRKICKQKRGLR
# B4: RFPL2 RING domain (UniProt O75678); chain MAALFQEASSCPVCSDYLEKPMSLECGCAVCLKCINSLQKEPHGEDLLCCCSSMVSRKNKIRR
# B5: PEX2 RING domain (UniProt P28328); chain DNTLATSGKECALCGEWPTMPHTIGCEHIFCYFCAKSSFLFDVYFTCPKCGTEVHSLQPLK
# B6: RNF14 RING domain (UniProt Q9UBS8); chain IKCFNSKLFLCSICFCEKLGSECMYFLECRHVYCKACLKDYFEIQIRDGQVQCLNCPEPKCPSVATPGQVK
# B7: TRIM35 RING domain (UniProt Q9UPQ4); chain PSRSFKEELLCAVCYDPFRDAVTLRCGHNFCRGCVSRCWEVQVSPTCPVCKDRASPADLRT
# B8: RNF4 RING domain (UniProt P78317); chain TGLRPSGTVSCPICMDGYSEIVQNGRLIVSTECGHVFCSQCLRDSLKNANTCPTCRKKINHKRYHP
# Target sequence (chain): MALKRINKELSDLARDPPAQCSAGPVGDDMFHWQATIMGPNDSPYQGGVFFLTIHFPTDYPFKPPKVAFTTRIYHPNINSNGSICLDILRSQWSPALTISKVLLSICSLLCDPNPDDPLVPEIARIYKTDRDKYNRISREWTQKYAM
Molecule,lacZ reporter activity
B1 (UBE4A RING domain),2320
B2 (MSL2 RING domain),0
SYEDKSNDFVCPICFDMIEEAYMTKCGHSFCYKCIHQSLEDNNRCPKCNYVVDNIDHLY (COP1 RING domain (UniProt Q8NHY2)),0
B3 (RNF112 RING domain),0
B4 (RFPL2 RING domain),0
B5 (PEX2 RING domain),0
B6 (RNF14 RING domain),0
B7 (TRIM35 RING domain),0
LKQVSIRENCCSLCCDEVADTQLKPCGHSDLCMDCALQLETCPLCRKEIVSRIRQI (RSPRY1 RING domain (UniProt Q96DX4)),0
B8 (RNF4 RING domain),3590

# Series 2 — method: RNA Bind-n-Seq; form: RNA; matrix: in vitro; concentration: 200 nM; setting: whole 134-nt RNA, ends assumed; with: 150 mM KCl; baseline: input library; direction: higher = stronger binding
# Target: Fragile X messenger ribonucleoprotein 1, C-terminal low-complexity region (Fmr1, Mus musculus, UniProt P35922)
# Constant ends, left off below: GGGAGUUCUACAGUCCGACGAUC … UGGAAUUCUCGGGUGUCAAGG
Sequence,log2 enrichment
CAAGUCCUGUGCUACACAUCGUAUGUACCGAAUCGGAAAAAGGUUUUUUUGGUGGAAAGUAUUAUGUUACGCCGUUCGGAUCUGCACUUC,-0.856
UGGGAGGUGGAUUUUGUUUAUUUUUUUAGCUCUUUUCCAGGGGUGGGAAUUUUUUUUUAAUAUGUGUCAUGAAUAAAGUUGUUUUUGAAA,0.248
AGUCCUGUGCUACACAUCGUAUGUACCGAAUCGGCCCCCGGGCCCCCGGGCCCCCGGAAAGUAUUAUGUUACGCCGUUCGGAUCUGCACU,-0.826
UCCUCAAGUCCUGUGCUACACAUCGUAUGUACCGAAUCGGGAGGAGGAGGGAAAGUAUUAUGUUACGCCGUUCGGAUCUGCACUUCCAGC,-0.303
CCUGUGCUACACAUCGUAUGUACCGAAUCGGGGCCCCCCCGGCCCCCCCGGGCCCCCCCGGAAAGUAUUAUGUUACGCCGUUCGGAUCUG,-0.481
UACUCAGCACAGAAAUUCAGGAGACACAGACAAGUUCUUCCACGAUGUCGUACAGACGAGAACUAGAGAAAUACCGUGACCUGGAUGAAG,0.586
CUCAAGUCCUGUGCUACACAUCGUAUGUACCGAAUCGGGAGGGGAGGGGAGGGAAAGUAUUAUGUUACGCCGUUCGGAUCUGCACUUCCA,1.15
ACCAUGCAGGUGGGCAUCUUUGGGAAGUGGGGCAAGGGGGGGAUAGGGAGGGGCGUAACACUUUGGGAACAGGUGGUCCCAGGUCGUUUC,0.801

# Series 3 — target: CCNE1, cyclin fold, Cln2 fusion (human); method: yeast growth competition, sequencing; matrix: yeast; setting: strong parent motif; baseline: not given; direction: higher = stronger binding; starting sequence: viral docking peptide; KGVKRKLFAEDSS
Variant,normalised enrichment score
A9Q,7.51
E10G,6.8
R5Y,-0.128

# Mixed results — cell line: HEK-293T/ACE2; method: Hoechst nuclei count; concentration: concentration not given; time: 16 (unit not given); baseline: vehicle
SMILES,viability
COC(=O)CCc1ccc(OCC(O)CNC(C)C)cc1 (centres unmarked),99.7%
CC(=O)OC(C)C[N+](C)(C)C (centres unmarked),105%

# Excerpt of the above (series 1):
Molecule,lacZ reporter activity
B4 (RFPL2 RING domain),0
B5 (PEX2 RING domain),0
B6 (RNF14 RING domain),0
